Results of several laboratories.
Numbered parts are unrelated; each lists some results of a single study.

Study 1 — method: RNA Bind-n-Seq; molecule type: RNA; medium: in vitro; concentration: 100 nM; reference: input RNA pool; reading: higher = stronger binding
Target: RING finger protein unkempt homolog, zinc fingers 1-6, SBP tag (UNK, Homo sapiens, UniProt Q9C0B0, residues 30-357)
Sequence of UniProt Q9C0B0 (30-357, looked up): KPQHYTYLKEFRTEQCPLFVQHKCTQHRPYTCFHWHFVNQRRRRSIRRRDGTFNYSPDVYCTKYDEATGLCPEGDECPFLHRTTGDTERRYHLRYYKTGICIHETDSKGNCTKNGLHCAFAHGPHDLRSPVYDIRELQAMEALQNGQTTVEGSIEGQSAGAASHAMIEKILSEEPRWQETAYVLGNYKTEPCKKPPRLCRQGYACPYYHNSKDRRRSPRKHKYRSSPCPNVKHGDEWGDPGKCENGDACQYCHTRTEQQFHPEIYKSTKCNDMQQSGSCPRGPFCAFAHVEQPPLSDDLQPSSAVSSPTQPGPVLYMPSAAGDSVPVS
Notes: RNA with constant flanks, vertebrate orthologous sites, ends assumed
All sequences stand within: GGGAGUUCUACAGUCCGACGAUC … CAACAGAGGAUUGAGCAUCA
| Sequence | bound/input enrichment [ratio] |
| --- | --- |
| GGACCAUACAUAUACAAUGUGUAUCAAAUGCUGGUUGUAAAAUUAAACCAUCAUCUAGAAUAGAGUUCUUUUGUUAUAAUCAAGUUACAAAUAGGUUUUCUUAAACCAGAGAUGCACCGC | 0.465 |
| UAUUCAUUUGAUUGAAAUCAUUUAGAUAAGAAAUUAUUACUGUUUUCUUUCAAACAGCAUAUCCUAUUUUUCAUCCACUUUGCAAAUACUAGUUUUGUGUGAUUUCUUAACAUCACAAUC | 0.647 |
| UUGUUUUGUACAGGGUAUUCUCUGUACUAAUUUGUUGUGGUUAUAAAACAACUAGCAAAACAGCUUACAUUUGUAUUUAUUUUCUAUUCCAUACCUCUCUGCCCCAUGUUUUUUCUCCUC | 0.729 |
| UCCUCAACUUCUUCUAGCUUGUGAUCCUUCAAAGCUGGGUCGGACAUUAGUGCUAGAUACUAGAAAUUUUCAUUUCCCUGUUGCCAGUGAUCAGAGAGACAGACAUUAAAACAGGAAUAU | 1.2 |
| AGCAGCUCAAGGAUUCAGAACUGGUUUUGCAAAUGUGCCAGGCAGAUAUGGAACAAACGCUCGUGGUCAGCCCCGACCAUAAUAAACACCAUUAUUUAUUAUACUUAAGGGUAUUGAUUA | 0.169 |
| GGCUCCCCUCUUAACCCUAUAUCUUCUGUUUCAUAGUGCAGAAAUAUUCAUUUGUAUUAUUAGUGGACUUGUUUAAUUUUAGAAAAACUUUGAGUACAGAUACUGUGAGCUUACAUGGAA | 0.879 |
| CUCCCCUUAAUCCCAUCUCAUCUGUUUCAUAGUGCUGAAAUUCUGUCUUCAGCCUUAUUUUUAGCGAACUUAUUCUAAUUCUAGCGAAACUUCCAGUGUGGAUACUGUGAGCUAUGUGGA | 2.87 |
| AUUACUGUUAAGCACUGUGUUCCAGACCGUGUCUGACUUAGUGUAACCUAGGAGAUUUUCUAGUUUUAUUUUAACGAAACCCUGAUUGGCGCACAGCAGUGAGGAGAACAGCGUCUUUUA | 1.09 |

Study 2 — method: Spec-seq; molecule type: double-stranded DNA, one strand shown; medium: in vitro; concentration: not given; notes: whole probe, mean of replicates; reference: not given; reading: lower = stronger binding; all sequences stand within: GAGTCGTCTCGTCAGCAC … CCGTAGAGCACTCAGGTC
Target: POU, POU domain (Salpingoeca helianthica)
Construct (chain): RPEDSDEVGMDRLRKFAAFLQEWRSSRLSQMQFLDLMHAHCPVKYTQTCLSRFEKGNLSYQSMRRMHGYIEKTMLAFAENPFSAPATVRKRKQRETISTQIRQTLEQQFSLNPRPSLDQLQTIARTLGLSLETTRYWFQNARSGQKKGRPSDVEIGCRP
| Sequence | relative binding energy |
| --- | --- |
| ATGCAGTT | 1.4 ln ratio |
| GCAATAAT | 0.0185 ln ratio |
| ATGCATTA | 0.879 ln ratio |
| ATGCTAGC | 1.33 ln ratio |
| ATTTACAT | 0.283 ln ratio |
| CGCTTAAT | 0.442 ln ratio |
| ATGCGGAT | 1.45 ln ratio |
| ATAACGAT | -0.304 ln ratio |
| ATGTAAAT | 0.87 ln ratio |

Study 3 — method: protein binding microarray; molecule type: double-stranded DNA, one strand shown; medium: in vitro; concentration: not given; reference: not given; reading: higher = stronger binding
Target: Histone acetyltransferase KAT6A, both winged helices, GST fusion (KAT6A, Homo sapiens, UniProt Q92794, residues 1-181)
Notes: 8-mer, flanks averaged, mean of 2 arrays, mostly near background
Residues (chain): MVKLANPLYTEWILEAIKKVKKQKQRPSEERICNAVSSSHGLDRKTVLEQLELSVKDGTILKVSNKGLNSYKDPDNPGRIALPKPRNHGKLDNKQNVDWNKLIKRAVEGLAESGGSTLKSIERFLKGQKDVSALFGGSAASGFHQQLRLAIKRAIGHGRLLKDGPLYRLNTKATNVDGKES
| Sequence | E-score |
| --- | --- |
| CTCCGGGA | 0.0715 |
| CTGATCTC | -0.0519 |
| AGCAAGCC | -0.146 |
| ATTATACG | 0.0599 |
| AGAAAGCC | -0.1 |
| ACTCTTCT | -0.178 |
| CAGTAGCC | 0.00911 |

Mixed results
| Molecule | target | assay | system | conditions | scale | quantity | result |
| --- | --- | --- | --- | --- | --- | --- | --- |
| PhoQ, residues 284 288 289 292 302 303 ASASEQ | PhoP, residues 12 14 15 18 19 STWGI (Escherichia coli, UniProt P23836) | Sort-seq, measured: YFP reporter | E. coli | PhoQ-PhoP variant library, with: 10 µM Mg2+ | reference: high Mg2+ state, higher = stronger signaling | fold induction | 1.12 |
